Experimental data from different studies.
Protocols differ between the studies behind these lines.
T1: DNA aptamer; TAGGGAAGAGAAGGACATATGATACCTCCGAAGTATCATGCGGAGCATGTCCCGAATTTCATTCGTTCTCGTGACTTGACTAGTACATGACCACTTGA
T2: RNA G4, bulged parallel (Homo sapiens); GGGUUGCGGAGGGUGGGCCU
T3: pre-miR-21 RNA, U bulge to U-A pair (Homo sapiens); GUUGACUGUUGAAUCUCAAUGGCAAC
T4: pre-miR-21 RNA, hairpin loop region (Homo sapiens); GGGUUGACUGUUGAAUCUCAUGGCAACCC
T5: DNA aptamer, structure-switching; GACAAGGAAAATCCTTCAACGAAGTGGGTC
T6: DNA aptamer, 8-thienyl-dG at G5; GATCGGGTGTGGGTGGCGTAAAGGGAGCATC
T7: DNA aptamer adenosine aptamer, site 1 removed; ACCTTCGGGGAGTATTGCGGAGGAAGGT
T8: SNCA 5' UTR IRE RNA A-bulge hairpin (Homo sapiens); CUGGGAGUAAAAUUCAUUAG
T9: riboswitch RNA 2'-deoxyguanosine sensing domain (Mesoplasma florum); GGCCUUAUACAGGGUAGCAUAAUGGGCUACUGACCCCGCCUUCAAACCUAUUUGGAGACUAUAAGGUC
T10: RNA G4 TERRA multimeric G-quadruplex (Homo sapiens); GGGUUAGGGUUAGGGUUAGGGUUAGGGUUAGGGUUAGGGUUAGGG
T11: DNA aptamer; CGAAAACTAGACAGCG
T12: DNA aptamer; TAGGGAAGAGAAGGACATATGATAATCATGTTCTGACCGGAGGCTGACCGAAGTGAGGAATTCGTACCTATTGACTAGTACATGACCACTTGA

CC(=O)[C@H]1CC[C@H]2[C@@H]3CCC4=CC(=NOCC(=O)O)CC[C@]4(C)[C@H]3CC[C@]12C  Kd (T1, DNA aptamer; bead-ELAA; NaCl 100 mM): 0.00044 µM
CCN(CC)c1ccc2cc(/C=C/c3ccc4cc(F)c(N5CCN(C)CC5)cc4[n+]3C)c(=O)oc2c1  Kd (T2, RNA G4, bulged parallel (Homo sapiens); microscale thermophoresis; pH 7.5, 25 °C, KCl 150 mM, MgCl2 1 mM): 0.171 µM
CN1CCN(c2ccc(-c3ccc4[nH]c(-c5ccc(OCCCC(=O)N6CCN(c7nncc8sccc78)CC6)cc5)nc4c3)cc2)CC1  Kd (T3, pre-miR-21 RNA, U bulge to U-A pair (Homo sapiens); microscale thermophoresis): 0.23 µM
N=C(N)NCCC[C@H](NC(=O)CN(Cc1ccco1)C(=O)CN(CCO)C(=O)CNCc1ccncc1)C(=O)NCC(=O)NCC(N)=O  Kd (T4, pre-miR-21 RNA, hairpin loop region (Homo sapiens); in-line cleavage; pH 8.5, apparent): 251 µM
c1ccc([C@H]2CN3CCSC3=N2)cc1  Kd (T5, DNA aptamer, structure-switching; 1H NMR titration; 500 µM, pH 6.8, 5 °C, KCl 245 mM, apparent): 1700 µM
C[C@@H]1Cc2c(Cl)cc(C(=O)N[C@@H](Cc3ccccc3)C(=O)O)c(O)c2C(=O)O1  Kd (T6, DNA aptamer, 8-thienyl-dG at G5; fluorescence titration; pH 8.0, 20 °C, K+ 5 mM, with: OTA 3 µM): 19.9 µM
Nc1ncnc2c1ncn2[C@@H]1O[C@H](CO)[C@@H](O)[C@H]1O  Kd (T7, DNA aptamer adenosine aptamer, site 1 removed; ITC; pH 7.6, 25 °C, Na+ 100 mM, one-site model): 12 µM
CCOC(=O)C1=C(Nc2ccccc2)SC(=Cc2ccc(OCCOCCOCCOCCNC(=O)CCCOc3ccc(-n4c(SCC(=O)Nc5ccc6cn[nH]c6c5)nnc4-c4ccncc4)cc3)c(O)c2)C1=O  Kd (T8, SNCA 5' UTR IRE RNA A-bulge hairpin (Homo sapiens); MST): 0.103 µM
Nc1nc2c(ncn2[C@H]2C[C@H](O)[C@@H](COP(=O)(O)O)O2)c(=O)[nH]1  Kd (T9, riboswitch RNA 2'-deoxyguanosine sensing domain (Mesoplasma florum); ITC; pH 6.8, 30 °C, KCl 100 mM): 379 µM
CN1CCN(c2ccc(-c3nc(-c4ccc(N5C(=O)c6cccc7c(N8CCN(C)CC8)ccc(c67)C5=O)cc4)[nH]c3-c3ccc(N4CCN(C)CC4)cc3)cc2)CC1  Kd (T10, RNA G4 TERRA multimeric G-quadruplex (Homo sapiens); fluorescence titration): 22.2 µM
C[C@H](Cn1cnc2c(N)ncnc21)OCP(=O)(O)O  Kd (T11, DNA aptamer; interferometric free solution assay; 2 h, 22 °C, NaCl 150 mM, single-site fit): 0.00171 µM
C[C@]12CC[C@@H]3c4ccc(O)cc4C(=NOCC(=O)O)C[C@H]3[C@@H]1CC[C@@H]2O  Kd (T12, DNA aptamer; APAA; NaCl 100 mM): 0.00474 µM

A few entries again:
C[C@]12CC[C@@H]3c4ccc(O)cc4C(=NOCC(=O)O)C[C@H]3[C@@H]1CC[C@@H]2O  Kd (T12, DNA aptamer; APAA; NaCl 100 mM): 0.00474 µM
